{"data": "Experimental data collected from several papers", "note": "Numbered parts are unrelated; each lists some results of a single study. Changes are numbered by the printed parent chain."}
{"data": "Sample 1", "target": "CEP164, C-terminal peptide (human)", "technique": "DHFR complementation, deep sequencing", "sample": "yeast", "notes": "single substitutions, model-inferred values", "relative to": "wild type", "direction": "higher = weaker binding", "starting sequence": "PDZK1, PDZ domain 2 (human); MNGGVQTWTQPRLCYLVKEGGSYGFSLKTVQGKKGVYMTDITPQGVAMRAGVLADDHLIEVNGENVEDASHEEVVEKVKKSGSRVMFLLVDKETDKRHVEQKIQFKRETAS; partner HNRVKVYRF"}
{"Substitution": "R49Q", "binding free energy change": "0.15 kcal/mol"}
{"Substitution": "A69M", "binding free energy change": "-0.4 kcal/mol"}
{"Substitution": "G51S", "binding free energy change": "1.04 kcal/mol"}
{"Substitution": "L16V", "binding free energy change": "0.996 kcal/mol"}
{"Substitution": "G35N", "binding free energy change": "0.912 kcal/mol"}
{"Substitution": "T39S", "binding free energy change": "0.201 kcal/mol"}
{"Substitution": "T109M", "binding free energy change": "-0.18 kcal/mol"}
{"Substitution": "M86K", "binding free energy change": "-0.127 kcal/mol"}
{"Substitution": "G51Y", "binding free energy change": "0.918 kcal/mol"}
{"data": "Sample 2", "target": "CCNA1, cyclin fold, Cln2 fusion (human)", "technique": "yeast growth competition, sequencing", "sample": "yeast", "notes": "weak parent motif", "relative to": "not given", "direction": "higher = stronger binding", "starting sequence": "NPAT docking peptide (human); PCHRRVLCFDSTT; partner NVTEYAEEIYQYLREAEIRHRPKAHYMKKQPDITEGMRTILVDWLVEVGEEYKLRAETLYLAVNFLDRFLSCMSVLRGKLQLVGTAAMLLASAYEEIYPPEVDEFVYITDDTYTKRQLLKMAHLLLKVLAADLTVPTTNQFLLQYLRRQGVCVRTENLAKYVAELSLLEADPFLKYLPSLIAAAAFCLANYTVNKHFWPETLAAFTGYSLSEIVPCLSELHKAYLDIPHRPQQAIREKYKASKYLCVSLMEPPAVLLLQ"}
{"Substitution": "PCHRRVLCFASTT [D10A]", "normalised enrichment score": 0.269}
{"Substitution": "PCHRRVLCLDSTT [F9L]", "normalised enrichment score": -0.246}
{"Substitution": "PAHRRVLCFDSTT [C2A]", "normalised enrichment score": 0.243}
{"Substitution": "PCHRRVLAFDSTT [C8A]", "normalised enrichment score": 0.228}
{"Substitution": "ACHRRVLCFDSTT [P1A]", "normalised enrichment score": -0.213}
{"Substitution": "PCHRRVLCFDSTA [T13A]", "normalised enrichment score": -0.0224}
{"Substitution": "PCHRAVLCFDSTT [R5A]", "normalised enrichment score": 0.211}
{"data": "Sample 3", "target": "Histone acetyltransferase KAT6A, winged helix 2, GST fusion (KAT6A, Homo sapiens, UniProt Q92794, residues 85-181)", "technique": "protein binding microarray", "molecule type": "double-stranded DNA, one strand shown", "sample": "in vitro", "concentration": "not given", "notes": "8-mer, flanks averaged, mean of 2 arrays, mostly near background", "relative to": "not given", "direction": "higher = stronger binding", "Residues (chain)": "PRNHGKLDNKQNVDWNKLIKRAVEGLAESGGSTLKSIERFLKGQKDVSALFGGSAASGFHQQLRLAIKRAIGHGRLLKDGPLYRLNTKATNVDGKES"}
{"Oligonucleotide": "CGCAAATC", "E-score": 0.00421}
{"Oligonucleotide": "AGCCTAAA", "E-score": 0.204}
{"Oligonucleotide": "AAAACCCT", "E-score": -0.0575}
{"Oligonucleotide": "CCCCGGAA", "E-score": 0.0101}
{"Oligonucleotide": "CGAAAAGC", "E-score": 0.0863}
{"Oligonucleotide": "AACAGTCC", "E-score": -0.188}
{"Oligonucleotide": "CACGACTG", "E-score": -0.113}
{"Oligonucleotide": "AGCAATTA", "E-score": 0.0387}
{"Oligonucleotide": "ACCGATCG", "E-score": -0.0215}
{"Oligonucleotide": "CTTTCTTC", "E-score": 0.0176}
{"Oligonucleotide": "ACGTGGAA", "E-score": -0.139}
{"data": "Further values, each from its own experiment"}
{"Substance": "PhoQ, residues 284 288 289 292 302 303 NSMLDC", "target": "PhoP, residues 12 14 15 18 19 GHCSL (Escherichia coli, UniProt P23836)", "assay": "Sort-seq, item: YFP reporter", "test system": "E. coli", "setting": "PhoQ-PhoP variant library, together with: 10 µM Mg2+", "scale": "relative to: high Mg2+ state, higher = stronger signaling", "quantity": "fold induction", "value": 16.6}
{"note": "Repeated from above (sample 3):"}
{"Oligonucleotide": "ACCGATCG", "E-score": -0.0215}
{"Oligonucleotide": "ACGTGGAA", "E-score": -0.139}
